Published values of several laboratories.
Compare with care: the assays were run in different laboratories. “And” joins repeats or separate records; there may be more than shown.
E3 SUMO-protein ligase CBX4: E3 SUMO-protein ligase CBX4 (Homo sapiens, UniProt O00257)
UniProt O00257, sequence (whole entry, looked up): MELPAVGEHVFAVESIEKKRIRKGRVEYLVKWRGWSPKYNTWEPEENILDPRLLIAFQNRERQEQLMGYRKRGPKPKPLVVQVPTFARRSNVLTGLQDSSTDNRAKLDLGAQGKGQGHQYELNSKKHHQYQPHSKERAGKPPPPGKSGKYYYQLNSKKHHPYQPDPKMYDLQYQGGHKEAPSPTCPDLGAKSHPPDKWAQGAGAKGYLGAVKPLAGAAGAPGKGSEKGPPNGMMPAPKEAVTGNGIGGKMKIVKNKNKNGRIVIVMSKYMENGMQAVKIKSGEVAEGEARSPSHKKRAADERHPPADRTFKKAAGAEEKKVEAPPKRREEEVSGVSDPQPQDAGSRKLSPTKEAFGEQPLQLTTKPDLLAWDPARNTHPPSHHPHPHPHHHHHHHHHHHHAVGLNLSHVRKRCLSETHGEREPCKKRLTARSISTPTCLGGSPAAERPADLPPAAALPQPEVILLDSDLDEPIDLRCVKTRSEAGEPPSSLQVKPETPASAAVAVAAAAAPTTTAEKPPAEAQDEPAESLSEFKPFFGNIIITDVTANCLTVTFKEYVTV
GBA2: Beta-glucosidase (GBA2, Homo sapiens, UniProt Q9HCG7)
UniProt Q9HCG7, sequence (whole entry, looked up): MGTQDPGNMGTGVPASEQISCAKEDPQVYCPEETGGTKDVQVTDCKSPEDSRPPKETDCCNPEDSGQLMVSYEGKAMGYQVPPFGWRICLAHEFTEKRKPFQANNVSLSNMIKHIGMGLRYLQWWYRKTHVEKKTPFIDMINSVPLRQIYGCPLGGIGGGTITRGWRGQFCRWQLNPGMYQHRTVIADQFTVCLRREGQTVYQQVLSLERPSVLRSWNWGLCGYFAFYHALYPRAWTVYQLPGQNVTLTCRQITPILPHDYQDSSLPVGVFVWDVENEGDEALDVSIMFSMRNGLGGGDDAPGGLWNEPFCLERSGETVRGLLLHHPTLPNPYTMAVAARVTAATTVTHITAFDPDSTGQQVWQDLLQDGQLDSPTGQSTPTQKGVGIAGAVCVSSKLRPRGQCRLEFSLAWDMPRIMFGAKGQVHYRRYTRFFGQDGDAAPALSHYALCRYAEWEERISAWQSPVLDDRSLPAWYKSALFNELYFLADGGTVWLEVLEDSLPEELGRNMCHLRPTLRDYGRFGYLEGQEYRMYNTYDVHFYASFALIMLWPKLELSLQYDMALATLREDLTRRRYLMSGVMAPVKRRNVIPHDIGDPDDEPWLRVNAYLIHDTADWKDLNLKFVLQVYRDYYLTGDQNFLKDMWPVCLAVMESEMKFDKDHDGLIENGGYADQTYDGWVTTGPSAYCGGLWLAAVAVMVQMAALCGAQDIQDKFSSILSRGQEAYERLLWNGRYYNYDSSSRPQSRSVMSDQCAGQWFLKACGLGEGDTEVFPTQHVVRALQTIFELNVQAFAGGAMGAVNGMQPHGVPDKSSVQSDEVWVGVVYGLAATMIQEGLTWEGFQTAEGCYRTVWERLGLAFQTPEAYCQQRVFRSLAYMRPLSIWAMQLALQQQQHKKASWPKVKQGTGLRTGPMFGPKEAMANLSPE
HSP90B1: Endoplasmin (HSP90B1, Canis lupus familiaris, UniProt P41148)
UniProt P41148, sequence (whole entry, looked up): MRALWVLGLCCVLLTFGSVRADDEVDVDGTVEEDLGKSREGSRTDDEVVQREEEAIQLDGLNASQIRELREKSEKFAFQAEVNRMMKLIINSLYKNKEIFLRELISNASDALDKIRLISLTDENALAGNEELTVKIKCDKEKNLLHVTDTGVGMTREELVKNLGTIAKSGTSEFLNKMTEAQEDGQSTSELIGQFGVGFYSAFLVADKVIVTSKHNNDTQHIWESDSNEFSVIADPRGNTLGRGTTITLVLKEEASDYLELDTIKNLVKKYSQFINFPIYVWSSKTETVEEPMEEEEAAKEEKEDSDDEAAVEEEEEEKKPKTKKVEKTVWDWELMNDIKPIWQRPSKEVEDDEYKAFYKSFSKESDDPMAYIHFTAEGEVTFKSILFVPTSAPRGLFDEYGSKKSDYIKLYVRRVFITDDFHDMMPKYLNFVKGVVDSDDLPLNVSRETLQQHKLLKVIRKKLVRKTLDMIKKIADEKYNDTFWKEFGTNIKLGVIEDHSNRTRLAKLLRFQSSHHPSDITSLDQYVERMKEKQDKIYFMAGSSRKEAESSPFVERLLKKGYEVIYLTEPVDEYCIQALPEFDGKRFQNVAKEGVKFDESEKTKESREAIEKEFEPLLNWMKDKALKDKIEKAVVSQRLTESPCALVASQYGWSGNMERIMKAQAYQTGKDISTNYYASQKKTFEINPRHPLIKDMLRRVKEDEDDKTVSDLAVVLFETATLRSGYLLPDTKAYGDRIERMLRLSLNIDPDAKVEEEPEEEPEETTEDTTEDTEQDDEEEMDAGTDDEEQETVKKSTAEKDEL
UniProt P28161, sequence (whole entry, looked up): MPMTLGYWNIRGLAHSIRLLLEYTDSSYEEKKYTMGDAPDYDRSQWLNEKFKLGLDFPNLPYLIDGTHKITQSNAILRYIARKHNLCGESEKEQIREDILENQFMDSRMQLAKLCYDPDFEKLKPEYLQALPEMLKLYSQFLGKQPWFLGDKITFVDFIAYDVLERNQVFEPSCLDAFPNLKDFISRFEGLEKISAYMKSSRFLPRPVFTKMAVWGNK

| SMILES | target | assay | test system | setting | scale | selectivity ratio |
| --- | --- | --- | --- | --- | --- | --- |
| CCN(CC)CCCC[C@H](NC(=O)[C@@H](NC(=O)[C@H](C)NC(=O)[C@H](Cc1ccccc1)NC(=O)c1ccc(C(F)(F)F)cc1)C1CCCC1)C(=O)N[C@@H](CO)C(N)=O | E3 SUMO-protein ligase CBX4 | competitive fluorescence polarization | – | – | reference: Cbx7 over E3 SUMO-protein ligase CBX4 | 3.1 fold |
| OC[C@@H]1[C@@H](O)[C@H](O)[C@@H](O)CN1CCCCCOCC1CCCO1 (stereo partly shown) | GBA2 | enzyme activity, inhibitor, 4-MU-β-D-glucopyranoside | HEK293T cell homogenate | – | reference: GCS IC50 over GBA2 IC50 | > 282 |
| C=C(CC)C(=O)c1ccc(OCC(=O)NCCCCNC(=O)COc2ccc(C(=O)C(=C)CC)c(Cl)c2Cl)c(Cl)c1Cl | Glutathione S-transferase Mu 2 (Homo sapiens, UniProt P28161) | enzyme activity, inhibitor | – | no preincubation | reference: GSTP IC50 over GSTM IC50 | ~47 fold |
| CN(C)CCNC(=O)c1cccc2c(NCCCCc3c(N)nc(N)nc3N)c3ccccc3nc12 | herring sperm DNA | binding, ITC | – | – | reference: Kd RNA A over Kd herring sperm DNA | 10 |
| CC(OCCCCCN1C[C@H](O)[C@@H](O)[C@H](O)[C@H]1CO)C(C)(C)C (stereo partly shown) | GBA2 | enzyme activity, inhibitor, 4-MU-β-D-glucopyranoside | HEK293T cell homogenate | – | reference: GCS IC50 over GBA2 IC50 | 1020 |
| COC(=O)c1c(O)cc(O)c(Cl)c1CCc1ccccc1Cc1ccc(Cl)cc1 | HSP90B1 | fluorescence polarization | – | together with: FITC-geldanamycin tracer | reference: HSP90B1 over Hsp90α | > 24 fold |
| C[C@H](NC(=O)[C@H](Cc1ccccc1)NC(=O)c1ccc(C(F)(F)F)cc1)C(=O)N[C@H](C(=O)N[C@@H](CCCC[N+](C)(C)C)C(=O)N[C@@H](CO)C(N)=O)C1CCCC1 | E3 SUMO-protein ligase CBX4 | competitive fluorescence polarization | – | – | reference: Cbx7 over E3 SUMO-protein ligase CBX4 | > 4 fold and 5.3 fold |
| CCOc1ccccc1Cc1ccccc1CCc1c(Cl)c(O)cc(O)c1C(=O)OC | HSP90B1 | fluorescence polarization | – | together with: FITC-geldanamycin tracer | reference: HSP90B1 over Hsp90α | > 16 fold |
| OC[C@@H]1[C@@H](O)[C@H](O)[C@@H](O)CN1CCCCCOCC1CCOC1 (stereo partly shown) | GBA2 | – | – | – | reference: GBA1 over target | 1720 |
| CC(=O)N[C@H](Cc1ccc2ccccc2c1)C(=O)N[C@](C)(Cc1ccc(Cl)cc1)C(=O)N[C@H](Cc1c[nH]c2ccccc12)C(=O)N[C@@H](CO)C(=O)N[C@@H](CCCCNC(C)C)C(=O)N[C@H](Cc1ccc(O)cc1)C(=O)N[C@@H](CC(C)C)C(=O)N[C@@H](CCCNC(=N)N)C(=O)N1CCC[C@H]1C(=O)N[C@H](C)C(N)=O | Gonadotropin-releasing hormone receptor (Gallus gallus, UniProt Q9DDC9) | binding, whole-cell radioligand binding | COS-7 transfected | – | reference: Gonadotropin-releasing hormone receptor over cGnRH-R-III | 56 fold |

For quick reference, copied from above:
| SMILES | target | assay | test system | setting | scale | selectivity ratio |
| --- | --- | --- | --- | --- | --- | --- |
| OC[C@@H]1[C@@H](O)[C@H](O)[C@@H](O)CN1CCCCCOCC1CCCO1 (stereo partly shown) | GBA2 | enzyme activity, inhibitor, 4-MU-β-D-glucopyranoside | HEK293T cell homogenate | – | reference: GCS IC50 over GBA2 IC50 | > 282 |
| C=C(CC)C(=O)c1ccc(OCC(=O)NCCCCNC(=O)COc2ccc(C(=O)C(=C)CC)c(Cl)c2Cl)c(Cl)c1Cl | Glutathione S-transferase Mu 2 (Homo sapiens, UniProt P28161) | enzyme activity, inhibitor | – | no preincubation | reference: GSTP IC50 over GSTM IC50 | ~47 fold |
